Measured values of several laboratories.
A part holds a random share of what one study measured.

Study 1
Target: Sal-like protein 4, full length isoform A (SALL4, Homo sapiens, UniProt Q9UJQ4, residues 1-1053)
Chain of UniProt Q9UJQ4 (whole entry, looked up): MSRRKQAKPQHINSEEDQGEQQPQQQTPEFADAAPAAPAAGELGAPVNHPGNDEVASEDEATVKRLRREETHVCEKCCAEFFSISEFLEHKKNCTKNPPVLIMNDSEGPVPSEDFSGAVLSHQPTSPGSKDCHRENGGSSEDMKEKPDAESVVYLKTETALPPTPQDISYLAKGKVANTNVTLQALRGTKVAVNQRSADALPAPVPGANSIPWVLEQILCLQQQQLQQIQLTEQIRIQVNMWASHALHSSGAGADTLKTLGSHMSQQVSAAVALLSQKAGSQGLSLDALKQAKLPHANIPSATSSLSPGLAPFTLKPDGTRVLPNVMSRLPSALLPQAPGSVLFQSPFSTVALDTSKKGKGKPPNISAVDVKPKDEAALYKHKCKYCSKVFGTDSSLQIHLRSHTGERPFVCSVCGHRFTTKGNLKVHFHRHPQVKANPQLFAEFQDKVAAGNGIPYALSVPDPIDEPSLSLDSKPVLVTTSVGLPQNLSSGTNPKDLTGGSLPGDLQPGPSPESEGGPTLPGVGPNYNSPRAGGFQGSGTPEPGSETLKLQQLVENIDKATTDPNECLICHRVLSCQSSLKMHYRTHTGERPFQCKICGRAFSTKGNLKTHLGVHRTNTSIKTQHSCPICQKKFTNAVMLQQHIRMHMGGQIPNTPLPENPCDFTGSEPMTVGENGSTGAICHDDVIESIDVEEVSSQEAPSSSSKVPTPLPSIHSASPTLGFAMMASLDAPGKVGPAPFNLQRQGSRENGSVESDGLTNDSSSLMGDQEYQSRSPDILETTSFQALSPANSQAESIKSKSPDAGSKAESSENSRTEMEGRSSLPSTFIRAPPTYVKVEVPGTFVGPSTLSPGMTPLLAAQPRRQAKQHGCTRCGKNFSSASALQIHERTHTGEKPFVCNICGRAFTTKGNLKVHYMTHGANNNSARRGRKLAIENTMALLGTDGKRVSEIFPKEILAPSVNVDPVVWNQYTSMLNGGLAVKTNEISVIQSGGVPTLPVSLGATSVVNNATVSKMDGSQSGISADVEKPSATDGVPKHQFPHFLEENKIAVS
Technique: universal PBM
Molecule type: double-stranded DNA, one strand shown
Sample: in vitro
Concentration: 600 nM
Notes: 8-mer, flanks averaged, mean of replicates
Reading: higher = stronger binding
Endpoint: E-score
TACACGTA: 0.0847
ACGTTGTC: -0.108
ACGAAGTA: 0.0415
CCAAGTTC: -0.147
GCGATCGC: -0.0869
ATCGAACG: -0.00269
CTACTTGC: -0.0495
ACCCTGCA: 0.0228
GTCGGGTA: -0.197
CCCTGCGC: -0.21
AGAAATTG: 0.32
AGCTCTGC: -0.292
ACGTGCCC: -0.265
CGATGTTC: -0.202
GACTAGCC: -0.168
AGATGCTG: -0.118
GAGGTCCC: -0.328
CCTTTACA: 0.0689

Study 2
Target: RNA binding protein fox-1 homolog 2, RRM domain, GST-SBP tag (RBFOX2, Homo sapiens, UniProt O43251-10, residues 100-194)
Technique: RNA Bind-n-Seq
Molecule type: RNA
Sample: in vitro
Concentration: 365 nM
Notes: natural RNA segment, single round, ends assumed
Relative to: no-protein control
Reading: higher = stronger binding
Endpoint: RBNS enrichment (R)
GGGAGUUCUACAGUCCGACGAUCUGUGUAAGUAUACUCUGUGAUGUUCAUACAGUGAUGAAAUCACCCAAAGACACAUUUCUCAGAACGUAGCCCCAUCAUGAAGUGACGUGACUACCAGAGAUUUCUGGAAAUGGAAUUCUCGGGUGCCAA: 0.445
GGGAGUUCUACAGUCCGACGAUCUGAGCUUGCCAGUGGUGACUGCCAGGAACGUCCUAUGAUCCACUUUGUUGGUUGUUGUUGCAGAAGACUGAACUGUUUUGGAAUAUUUAACAAUUACAGAAACAGUCAAGUGGAAUUCUCGGGUGCCAA: 0.773
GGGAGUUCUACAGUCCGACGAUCAAUAUGCAAUGCUAGACAAAGAUUUUCAAAAUAAAAAGCUAUUAUUUCAGAAAUUAUUUUAAAAGAUGCAUAGUAAAACAGUGUUUUCCUAUGGUAAGCAAAUAAGAAUGUGGAAUUCUCGGGUGCCAA: 0.392
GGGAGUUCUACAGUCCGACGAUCUGCCUAGCUUUUGCAACUCUUUAAGCUUACUGUGAUCACGUGCCCUCUCAGUAGGGGGCUUUUAGAGCAGUUGAAAUCUGCAGAACUGAACCUCUGAGGGCCAAAAUAGGUGGAAUUCUCGGGUGCCAA: 0.603
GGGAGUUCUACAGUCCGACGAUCUCAUUUGUCCUUUGUCUAGGAGAGGACAGGACUCUCUUUUUCCUCUUCCUGGUAGUUGUAAUGACCACUCCCAUAAGGGCUAUAACUGUUCUUCACAGGUGGCCCUGCUCUGGAAUUCUCGGGUGCCAA: 0.365
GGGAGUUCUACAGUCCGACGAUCCUAUGAAGCCAGCUGACAGAAGCAUCACAUGUCUUGGGCUGAUGCCGCUACCCGGUUCAUUUAUUUGCAAUUUGAGCCAUUUAAAGACCAAUAAAAUUCCUUUUCUAUAAUGGAAUUCUCGGGUGCCAA: 0.914
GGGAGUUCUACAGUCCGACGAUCUUACAUUUUGAGGAAAAAGAACAAAAAAGAAGGUUAUUGCAAAACUGAUGAUGCCCAUGAUACAAUUAGAAGUAUGUUAAAGAAGCGUGGGCAUUACAGAGAGCAGAAAGUGGAAUUCUCGGGUGCCAA: 2.84
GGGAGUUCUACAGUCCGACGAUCCAUUCUCUUUGUAGCUGAGUGCGUGGCUUUGAAAGUUGUGGAGGAAUUAAUACAGACACCAGAUUUUAGGCUUUGAAUUUGUUCUUAGUUGUUCAUUCCAGUCCUCUAAGUGGAAUUCUCGGGUGCCAA: 0.815

Study 3
Target: Ras GTPase-activating protein-binding protein 1, full length (G3BP1, Homo sapiens, UniProt Q13283)
Chain of UniProt Q13283 (whole entry, looked up): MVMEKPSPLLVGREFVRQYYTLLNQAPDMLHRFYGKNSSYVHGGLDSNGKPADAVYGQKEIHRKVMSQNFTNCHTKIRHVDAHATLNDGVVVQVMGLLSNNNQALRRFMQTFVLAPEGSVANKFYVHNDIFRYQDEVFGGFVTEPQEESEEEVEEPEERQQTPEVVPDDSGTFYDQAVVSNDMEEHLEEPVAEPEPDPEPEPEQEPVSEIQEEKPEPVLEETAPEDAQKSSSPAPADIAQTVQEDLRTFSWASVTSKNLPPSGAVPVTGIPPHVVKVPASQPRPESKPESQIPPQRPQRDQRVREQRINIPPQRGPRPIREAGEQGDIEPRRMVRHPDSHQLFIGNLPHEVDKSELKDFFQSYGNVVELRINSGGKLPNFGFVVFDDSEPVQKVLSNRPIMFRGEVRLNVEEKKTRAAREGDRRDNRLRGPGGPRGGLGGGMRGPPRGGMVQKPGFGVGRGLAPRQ
Technique: RNA Bind-n-Seq
Molecule type: RNA
Sample: in vitro
Concentration: 200 nM
Notes: whole 134-nt RNA, ends assumed
Added: 150 mM KCl
Relative to: input library
Reading: higher = stronger binding
Endpoint: log2 enrichment
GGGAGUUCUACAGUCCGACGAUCACCAUGCAGGUGGGCAUCUUUGGGAAGUGGGGCAAGGGGGGGAUAGGGAGGGGGGUAACACUUUGGGAACAGGUGGCCCCAGGUCGUUUCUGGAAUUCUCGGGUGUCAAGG: 1.18
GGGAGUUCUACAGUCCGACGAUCUGGGAGGUGGAUUUUGUUUAUUUUUUUAGCUCAUUUCCAGGGGUGGGAAUUUUUUUUUAAUAUGUGUCAUGAAUAAAGUUGUUUUUAAAAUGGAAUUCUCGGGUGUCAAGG: 0.225
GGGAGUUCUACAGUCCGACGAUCAAGUCCUGUGCUACACAUCGUAUGUACCGAAUCGGGGAAAGGGAAAGGGAAAGGGGAAAGUAUUAUGUUACGCCGUUCGGAUCUGCACUUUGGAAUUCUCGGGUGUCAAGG: 0.413
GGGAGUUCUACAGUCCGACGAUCCCUGUGCUACACAUCGUAUGUACCGAAUCGGGUUUUUUUGGGUUUUUUUGGGUUUUUGGGAAAGUAUUAUGUUACGCCGUUCGGAUCUGCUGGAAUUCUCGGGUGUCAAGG: -0.846
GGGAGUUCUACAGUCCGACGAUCUGCCUGGCCCAGUGCUGGGUUUGCCUUGUUGACGAUGCGCUUGGAUUGUUAAGGACACCGAUGUUCAGAACCCGGGAAGAGUCAUCUUAAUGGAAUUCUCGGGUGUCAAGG: -1.79
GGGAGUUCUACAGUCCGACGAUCGUCCUGUGCUACACAUCGUAUGUACCGAAUCGGGUUUGGGAAAAAAAGGGUUUUUGGGAAAGUAUUAUGUUACGCCGUUCGGAUCUGCACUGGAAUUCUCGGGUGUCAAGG: -0.266
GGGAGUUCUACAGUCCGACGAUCCCUCAAGUCCUGUGCUACACAUCGUAUGUACCGAAUCGGCGGGCGGGGCGGGAAAGUAUUAUGUUACGCCGUUCGGAUCUGCACUUCCAGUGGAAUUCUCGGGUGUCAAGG: 0.608
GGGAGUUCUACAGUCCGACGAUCUAACUUUAGAGGAGGAUCUGAUGGAUAUGGCAGUGGACGUGGAUUUGGGGAUGGCCAUAAUGGGUAUGGAGGAGGACCUGGAGGUGGCAAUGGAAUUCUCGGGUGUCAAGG: 0.298
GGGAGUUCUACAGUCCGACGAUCUCCUCAAGUCCUGUGCUACACAUCGUAUGUACCGAAUCGGGGUGGGUGGUGGAAAGUAUUAUGUUACGCCGUUCGGAUCUGCACUUCCAGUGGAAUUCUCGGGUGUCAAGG: 0.682

Study 4
Target: Interferon regulatory factor 7, full length, phosphomimetic (IRF7, Homo sapiens, UniProt Q92985, residues 1-503, S471D/S472D/S475D/S476D/S477D/S483D/S484D/S487D)
Technique: protein-binding microarray
Molecule type: double-stranded DNA, one strand shown
Sample: in vitro
Concentration: 2200 nM top
Notes: 60-bp whole probe
Added: salmon DNA 0.4 mg/ml
Relative to: random background probes
Reading: higher = stronger binding
Endpoint: fitted relative affinity
Constant ends, left off below: GCCTAGCAC … GTCTTGATTCGCTTGACGCTGCTG
Construct (chain): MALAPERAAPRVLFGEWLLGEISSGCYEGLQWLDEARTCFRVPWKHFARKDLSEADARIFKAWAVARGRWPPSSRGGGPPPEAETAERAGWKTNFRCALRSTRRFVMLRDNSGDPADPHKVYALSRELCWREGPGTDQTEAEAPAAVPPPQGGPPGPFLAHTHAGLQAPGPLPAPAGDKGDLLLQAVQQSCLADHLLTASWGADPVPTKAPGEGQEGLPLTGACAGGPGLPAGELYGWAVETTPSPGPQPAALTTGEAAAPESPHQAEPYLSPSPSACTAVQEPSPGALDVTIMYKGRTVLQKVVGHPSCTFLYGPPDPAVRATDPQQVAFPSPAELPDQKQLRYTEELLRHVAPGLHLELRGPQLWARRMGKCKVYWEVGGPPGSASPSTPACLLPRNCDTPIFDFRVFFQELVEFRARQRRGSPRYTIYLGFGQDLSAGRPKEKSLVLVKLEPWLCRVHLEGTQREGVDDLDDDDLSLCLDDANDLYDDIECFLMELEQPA
GACGGTTCCGGTTTGGGGACGTGCTAG: 3.8 z-score
TTTGGTATCGGTCTCGGTTAGTGCTAG: 1.47 z-score
TCATTTCCCACTTTCAGACTGTGCTAG: 4.68 z-score
ATGGTCCTCTCTCTATTCAGGTGCTAG: 1.42 z-score
TTAGAACCGGGGTATCGATTAGTGCTA: -0.152 z-score
GACGGCTTCGGTTTCGGGACGTGCTAG: 3.66 z-score
ATAGGTTTCCTTTTCCTTTAGTGCTAG: 7.07 z-score
GATGGACTGGACTTTCGGGACGTGCTA: 2.53 z-score
GGCGATCTCAGTCTCGAGACGTGCTAG: -0.164 z-score
GACGGACTGCTTCTCCAGACGTGCTAG: 0.172 z-score
TACGGTATCCTTATCCTGACGTGCTAG: 1.43 z-score
GACGGTTTCGGTTCCGGGAGGTGCTAG: 11.4 z-score
GACGGAGTGGGTCTCGGGACGTGCTAG: -0.764 z-score
GTAGGTATCGGGACTGGGTTAGTGCTA: -0.272 z-score
TCATTTTGGTCTTTCTGACTGTGCTAG: 2.45 z-score
AGGGTCTTCAGGTTCTCCCCGTGCTAG: 0.0749 z-score
GACGATATCGCGTTTCGAGACGTGCTA: 1.48 z-score
TCAGGTTTCGGGACTGGGTTAGTGCTA: 3.68 z-score
CTAGGACTGGGTTTCGGTTAGTGCTAG: 3.4 z-score

Repeated from above (study 1):
ATCGAACG: -0.00269
CTACTTGC: -0.0495
AGAAATTG: 0.32
ACGAAGTA: 0.0415
CCTTTACA: 0.0689
CGATGTTC: -0.202
CCCTGCGC: -0.21
TACACGTA: 0.0847
